Measured values collected from several papers.
Every numbered part comes from another study and shows a few of its results, in no order. Changes are numbered by the printed parent chain.

Sample 1
Target: Sal-like protein 4, full length isoform B (SALL4, Homo sapiens, UniProt Q9UJQ4-2, residues 1-616)
Method: universal PBM
Molecule type: double-stranded DNA, one strand shown
Sample: in vitro
Tested at: not given
Setting: 8-mer, flanks averaged, mean of replicates
Reading: higher = stronger binding
Residues (chain): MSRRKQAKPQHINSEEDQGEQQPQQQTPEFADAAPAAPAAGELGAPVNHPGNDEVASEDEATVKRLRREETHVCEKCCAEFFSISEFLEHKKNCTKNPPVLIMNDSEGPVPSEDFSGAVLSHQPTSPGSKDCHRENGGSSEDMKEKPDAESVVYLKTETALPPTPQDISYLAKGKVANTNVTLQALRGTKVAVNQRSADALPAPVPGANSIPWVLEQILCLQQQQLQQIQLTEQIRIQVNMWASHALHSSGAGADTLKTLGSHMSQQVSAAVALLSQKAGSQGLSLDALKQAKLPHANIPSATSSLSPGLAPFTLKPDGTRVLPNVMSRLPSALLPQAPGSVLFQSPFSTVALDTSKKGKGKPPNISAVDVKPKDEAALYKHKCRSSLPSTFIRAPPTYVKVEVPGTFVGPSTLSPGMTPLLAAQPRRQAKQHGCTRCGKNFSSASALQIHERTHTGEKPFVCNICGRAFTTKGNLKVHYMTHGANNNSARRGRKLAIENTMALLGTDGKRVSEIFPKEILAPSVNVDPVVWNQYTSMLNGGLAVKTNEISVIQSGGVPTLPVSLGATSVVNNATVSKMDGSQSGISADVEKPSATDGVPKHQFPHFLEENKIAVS
Sequence | E-score
CTGCTCCA | -0.128
TAGCCGGA | -0.252
CGCTCAAG | -0.182
GCGTCTCC | -0.198
GCGCATCC | -0.201
CCTATCAC | -0.13
CGAATGTC | -0.0323
AGTTCAAT | 0.0435

Sample 2
Target: Histone acetyltransferase KAT6A, winged helix 2, GST fusion (KAT6A, Homo sapiens, UniProt Q92794, residues 85-181)
Method: protein binding microarray
Molecule type: double-stranded DNA, one strand shown
Sample: in vitro
Tested at: not given
Setting: 8-mer, flanks averaged, mean of 2 arrays, mostly near background
Reference: not given
Reading: higher = stronger binding
Construct (chain): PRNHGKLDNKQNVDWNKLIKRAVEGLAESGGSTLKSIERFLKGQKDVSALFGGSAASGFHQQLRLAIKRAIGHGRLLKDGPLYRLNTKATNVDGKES
Sequence | E-score
GGGAGAGA | -0.0668
AAACACAG | 0.0427
CTAACTAG | -0.0198
GCGCCGAA | 0.152
CTTCAGTA | 0.0589
ACTTAGCC | 0.0392
AATGGGCC | -0.115
AAGCTGAA | 0.0397

Sample 3
Target: CCND1, cyclin fold, Cln2 fusion (human)
Method: yeast growth competition, sequencing
Sample: yeast
Setting: weak parent motif
Reference: not given
Reading: higher = stronger binding
Starting sequence: RB1 docking peptide (human); PKPLKKLRFDIEG
Substitution | normalised enrichment score
PKPLKALRFDIEG [K6A] | 0.742
PKPLKKLRDDIEG [F9D] | 0.277
PWPLKKLRFDIEG [K2W] | -0.357
PKPEKKLRFDIEG [L4E] | 0.00719
PKPLLKLRFDIEG [K5L] | 0.239
PMPLKKLRFDIEG [K2M] | 0.0444
PKPLKKLRFDIMG [E12M] | 0.0268
HKPLKKLRFDIEG [P1H] | 0.295

Mixed results
Substance | target | test | system | setting | how to read | quantity | value
PhoQ, residues 284 288 289 292 302 303 GTAMQF | PhoP, residues 12 14 15 18 19 NHTVL (Escherichia coli, UniProt P23836) | Sort-seq, measured: YFP reporter | E. coli | PhoQ-PhoP variant library, added: 10 µM Mg2+ | reference: high Mg2+ state, higher = stronger signaling | fold induction | 1.32

For quick reference, copied from above (sample 1):
Sequence | E-score
AGTTCAAT | 0.0435
CTGCTCCA | -0.128
CCTATCAC | -0.13
GCGCATCC | -0.201
